Published values gathered from unrelated publications.
Each line is one published result; not all experiments were run side by side. Numbers after ± are the reported error. Values after ≈ are worked out from the molar mass of the structure shown.

`O=C(O[C@@H]1Cc2c(O)cc(O)cc2O[C@@H]1c1cc(O)c(=O)c2c(O)c(O)cc([C@H]3Oc4cc(O)cc(O)c4C[C@H]3OC(=O)c3cc(O)c(O)c(O)c3)c2c1)c1cc(O)c(O)c(O)c1` gave an IC50 of greater than 10 µM (influenza virus; viral replication; MDCK; 72 h).
With `CC(C)c1ccc2c(c1)CC[C@H]1[C@](C)(CN)CCC[C@]21C` the IC50 was 2.49 µM (1205Lu; cell growth or viability, MTS; 24 h).
Under “lowest active concentration”, `Tricresyl phosphate` is recorded as 3 µM (human iPSC-derived cardiomyocytes; beating frequency; 30 min).
`CNC(C)Cc1ccc2c(c1)OCO2` (racemic) gave a mood rating of 0.6 (visual analog scale, refers to: Sedated; human; oral, 0.75 mg/kg, mean over session, unit not given; baseline: pre-dose baseline).
Under “Msr activity decrease”, `[Met(O2)35]Aβ40` is recorded as 3 ± 4% (methionine sulfoxide reductase (rat); HPLC, dabsyl-Met(O); rat primary cortical neurons; 10 µM, 24 h; baseline: untreated cells).
`CCC(=O)Nc1nccnc1C(=O)O` gave an IC50 of 1500 µM (Mycobacterium tuberculosis variant bovis BCG; microbial growth; ATCC35734 BCG; 5 days).
For `CC(=O)Nc1c(N)nc(SCC(=O)N/N=C/c2ccc([N+](=O)[O-])cc2)[nH]c1=O`, “concentration for maximal DNA damage” read 3 µM (calf thymus DNA; terbium luminescence; 24 h).
`c1ccc(CN2CCC3(CCCc4ccccc43)CC2)cc1` gave an IC50 of 14.6 µM (HEK293 expressing MOR; cAMP overshoot, inhibitor, HTRF cAMP; added: morphine then naloxone).
For `N=C(N)c1ccc(-c2ccc(-c3cccs3)o2)c(F)c1`, the inhibition was 103% (Salmonella enterica; sodium azide mutagenicity; TA1535; 10 µM, 48 h, added: sodium azide 2 µg/plate co-exposure).
With `CP(=O)(O)CCC(N)C(=O)O` (centres unmarked) the herbicidal activity was 50% (Ipomoea hederacea; 125 g/ha, 13 days, IPOHE, post-emergence spray; baseline: untreated (0%), complete kill (100%)).
`O=C(O)c1nccnc1-c1ccccc1` gave an IC50 of 1500 µM (Mycobacterium tuberculosis variant bovis BCG; microbial growth; ATCC35734 BCG; 5 days).
With `N#Cc1ccc(-c2ccc(-c3cccs3)o2)c(F)c1` the mutant frequency was 35% (Salmonella enterica; TA1535; 10 µM, 48 h, added: sodium azide after pre-exposure; baseline: sodium azide alone).
`CCCCCc1cc(O)c2c(c1)OC(C)(C)[C@@H]1CCC(C)=C[C@@H]21` has an ED50 of 2.41 mg/kg (catalepsy (ring immobility); ICR mice, female; intraperitoneal).
`N#Cc1ccc(-c2ccc(-c3cccs3)o2)cc1F` has an inhibition of 100% (Salmonella enterica; sodium azide mutagenicity; TA1535; 20 µM, 48 h, added: sodium azide 2 µg/plate after pre-exposure).
`COc1cc(/C=C(\C#N)C(=O)c2ccc(O)c(O)c2)cc(I)c1O` has an efficacy of 67% (HEK293 expressing MOR; morphine-induced cAMP overshoot, HTRF cAMP; 1 µM, added: NKH 477 25 nM; baseline: morphine control).
`O=C(/C=C/c1ccc(O)cc1)c1ccc(O)cc1O` has an IC50 of greater than 10 µM (influenza virus; viral replication; MDCK; 72 h).
`O=C(O)c1cnccn1` gave an IC50 of 1000 µM (Mycobacterium tuberculosis variant bovis BCG; microbial growth; ATCC35734 BCG; 5 days).
For `N#Cc1ccc(-c2ccc(-c3ccco3)o2)cc1F`, the mutant frequency was 36% (Salmonella enterica; TA1535; 20 µM, 48 h, added: sodium azide after pre-exposure; baseline: sodium azide alone).
With `CCCCCCCCCCCCCCCCCCOCC(COP(=O)([O-])OCC[N+](C)(C)C)OC` (centres unmarked) the efficacy was 144% (HEK293 expressing MOR; morphine-induced cAMP overshoot, HTRF cAMP; 1 µM, added: NKH 477 25 nM; baseline: morphine control).
With `C[C@H](Cn1cnc2c(N)ncnc21)OCP(=O)(O)O` the inhibition was 100% (human alphaherpesvirus 2; virus production; human monocytes/macrophages; 100 µg/mL, 6 days).
The IC50 of `Brc1c(Br)c(Br)c2n[nH]nc2c1Br` is reported as 14.6 µM (HEK293 expressing MOR; cAMP overshoot, inhibitor, HTRF cAMP; added: morphine then naloxone).
`N=C(N)c1ccc(-c2ccc(-c3ccco3)o2)cc1F` gave a mutant frequency of 16% (Salmonella enterica; TA1535; 20 µM, 48 h, added: sodium azide co-exposure; baseline: sodium azide alone).
`Cc1ccc(-c2nccnc2C(=O)O)cc1` gave an IC50 of roughly 1000 µM (Mycobacterium tuberculosis variant bovis BCG; microbial growth; ATCC35734 BCG; 5 days).
Under “increase in Papp”, `O=S(=O)(CC1CS1)c1ccc(Oc2ccccc2)cc1` (centres unmarked) is recorded as greater than 50% (HBMEC monolayer BBB model; Aβ transcytosis; 100 nM, 0 to 60 min, 37 °C, added: fluorescein-Aβ(1-42) 2 µM; baseline: control).
For `N#Cc1ccc(-c2ccc(-c3cccs3)s2)cc1F`, the inhibition was 104 ± 14.7% (Salmonella enterica; sodium azide mutagenicity; TA1535; 10 µM, 48 h, added: sodium azide 2 µg/plate after pre-exposure).
The EC50 of `Nc1ccn(C[C@@H](CO)OCP(=O)(O)O)c(=O)n1` is reported as 0.32 ± 0.26 µg/mL (≈ 1.15 µM) (herpes simplex virus 2; cytopathic effect; HEL, clinical isolate NA).
